Results of several laboratories.
A part holds a random share of what one study measured. Positions count from the first letter of the parent shown.

Set 1
Target: Ras GTPase-activating protein-binding protein 1, C-terminal RGG region (G3BP1, Homo sapiens, UniProt Q13283)
UniProt Q13283, sequence (whole entry, looked up): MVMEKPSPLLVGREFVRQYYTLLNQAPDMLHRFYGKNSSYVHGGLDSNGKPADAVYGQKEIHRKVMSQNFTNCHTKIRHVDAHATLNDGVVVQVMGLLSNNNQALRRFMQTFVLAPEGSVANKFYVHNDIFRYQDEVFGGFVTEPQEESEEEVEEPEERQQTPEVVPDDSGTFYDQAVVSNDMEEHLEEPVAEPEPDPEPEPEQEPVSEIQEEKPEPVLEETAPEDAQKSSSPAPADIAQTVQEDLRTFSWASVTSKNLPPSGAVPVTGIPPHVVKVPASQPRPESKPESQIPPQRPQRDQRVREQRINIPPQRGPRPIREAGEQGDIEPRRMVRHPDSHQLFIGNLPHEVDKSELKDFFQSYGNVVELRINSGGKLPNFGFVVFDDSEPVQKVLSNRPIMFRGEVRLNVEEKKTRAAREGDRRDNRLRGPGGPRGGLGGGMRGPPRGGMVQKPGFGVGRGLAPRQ
Technique: RNA Bind-n-Seq
Form: RNA
Matrix: in vitro
Concentration: 1 µM
Notes: whole 134-nt RNA, ends assumed
Added: 150 mM KCl
Baseline: input library
Reading: higher = stronger binding
The log2 enrichment of `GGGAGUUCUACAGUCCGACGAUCUUAAAGAAGAGGGUGUGCGGGACGUCCUUAAGGAUGUACUGCUCCCAUGGUACAAUGCCUAUCGCUUCUUAAUCCAGAACGUUCUGAGGCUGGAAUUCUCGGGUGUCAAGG` is reported as -1.68.
The log2 enrichment of `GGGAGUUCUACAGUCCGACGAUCUCCUGUGCUACACAUCGUAUGUACCGAAUCGGCCCCCCCGGCCCCCCCGGCCCCCCCGGAAAGUAUUAUGUUACGCCGUUCGGAUCUGCAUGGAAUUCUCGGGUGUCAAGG` is reported as -1.51.
`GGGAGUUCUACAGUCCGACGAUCUCCUCAAGUCCUGUGCUACACAUCGUAUGUACCGAAUCGGAGGAGGUUUGGAAAGUAUUAUGUUACGCCGUUCGGAUCUGCACUUCCAGCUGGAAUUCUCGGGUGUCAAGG` has a log2 enrichment of -1.36.
`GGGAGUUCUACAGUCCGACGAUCUGGCAGAGAAAUUGCAGCUGCAGGAGCAGCUCCAGGCAGAAACCGAGCUGUGUGCCGAGGCUGAGGAGCUCCGGGCCCGCCUGACCGCCAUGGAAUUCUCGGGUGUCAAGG` has a log2 enrichment of -0.717.
For `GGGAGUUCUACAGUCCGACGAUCUGGUUUGAGUCCAGCCAAUGACACUGGAGCCAAAAAGAAGAAAAAGAAACAAAAAAAGAAGAAAGAAAAAGGCAGUGAGACAGAUUCAGCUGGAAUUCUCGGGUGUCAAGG`, the log2 enrichment was -1.17.
`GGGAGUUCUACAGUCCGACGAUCAGUCCUGUGCUACACAUCGUAUGUACCGAAUCGGAAAGGUUUUUUUGGAAAAAAAGGAAAGUAUUAUGUUACGCCGUUCGGAUCUGCACUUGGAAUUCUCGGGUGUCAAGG` has a log2 enrichment of -2.6.
The log2 enrichment of `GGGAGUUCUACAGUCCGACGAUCACCAUGCAGGUGGGCAUCUUUGGGAAGUGGGGCAAGGGGGGGAUAGGGAGGGGGCUAACACUUUGGGAACAGGUGGUCCCAGGUCGUUUCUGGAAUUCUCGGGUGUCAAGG` is reported as 1.8.
For `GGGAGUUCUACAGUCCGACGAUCGUCCUGUGCUACACAUCGUAUGUACCGAAUCGGUUUUUUGGUUUUUUGGGUUUUUUGGGAAAGUAUUAUGUUACGCCGUUCGGAUCUGCAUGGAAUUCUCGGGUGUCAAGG`, the log2 enrichment was -1.66.

Set 2
Target: CCNF, cyclin fold, Cln2 fusion (human)
Technique: yeast growth competition, sequencing
Matrix: yeast
Notes: strong parent motif
Baseline: not given
Reading: higher = stronger binding
Starting sequence: MICAL3 docking peptide (human); LQLRRQLSFSEDS
Under “normalised enrichment score”, `E11K` is recorded as 4.19.
`F9H` — result for “normalised enrichment score”: -0.371.
For `R5W`, “normalised enrichment score” read 0.38.
For `F9L`, “normalised enrichment score” read 0.798.
`S8A`: “normalised enrichment score” 5.8.
Under “normalised enrichment score”, `Q2G` is recorded as 5.37.
`L3F` — result for “normalised enrichment score”: 4.43.
`S10C` — result for “normalised enrichment score”: 5.66.
For `Q2P`, “normalised enrichment score” read 6.18.
For `Q2I`, “normalised enrichment score” read 3.98.
`E11G` — result for “normalised enrichment score”: 5.49.
`R4H` — result for “normalised enrichment score”: 1.81.
`S10H`: “normalised enrichment score” 5.08.
`L7T`: “normalised enrichment score” -0.163.
`S8T` — result for “normalised enrichment score”: 6.46.

Set 3
Target: Centromere-binding protein 1, full length, His-tagged (CBF1, Saccharomyces cerevisiae, UniProt P17106, residues 1-351)
UniProt P17106, sequence (whole entry, looked up): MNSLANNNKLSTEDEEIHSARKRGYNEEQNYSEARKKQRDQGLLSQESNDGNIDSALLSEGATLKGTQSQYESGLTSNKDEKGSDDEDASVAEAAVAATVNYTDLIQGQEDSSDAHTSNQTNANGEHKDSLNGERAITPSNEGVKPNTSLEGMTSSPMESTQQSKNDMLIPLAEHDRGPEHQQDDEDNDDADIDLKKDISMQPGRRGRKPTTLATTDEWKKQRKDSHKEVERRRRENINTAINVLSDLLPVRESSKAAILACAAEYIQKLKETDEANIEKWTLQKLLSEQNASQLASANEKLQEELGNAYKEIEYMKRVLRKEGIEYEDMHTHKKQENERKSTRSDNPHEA
Technique: competition protein-binding microarray
Form: double-stranded DNA, one strand shown
Matrix: in vitro
Concentration: 2 µM
Notes: whole 60-bp probe, lowest competitor level
Added: Pho4 competitor, 0.05 µM
Reading: higher = stronger binding
For `TGGGTAAGATTTCACCACGTGAGGAGCATAATATTGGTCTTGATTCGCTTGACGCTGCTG`, the fluorescence intensity was 1630 a.u.
With `AAATTACTAAGTTGGCGAGTGGGTGACGCCGTATGAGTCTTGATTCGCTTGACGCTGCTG` the fluorescence intensity was 69.8 a.u.
`TGTTACGTAATAAGCAACGTGCAAACGCATTTTTTGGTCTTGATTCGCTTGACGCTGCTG` has a fluorescence intensity of 118 a.u.
The fluorescence intensity of `CTTTCCCGATCTTGGATAGTGGGTGTAGCACATTTGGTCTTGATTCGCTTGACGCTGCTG` is reported as 70.1 a.u.
For `CCCATCCGGTAGGTGCATGTGTGCCTCTGCAGGACGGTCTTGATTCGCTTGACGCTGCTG`, the fluorescence intensity was 69 a.u.
The fluorescence intensity of `CGTCCTAGTGATTGTCACGACACTTCCATGAGGAAGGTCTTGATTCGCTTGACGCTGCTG` is reported as 221 a.u.
With `GTCTTGTCTCATTGTTCGGTGGGTGTCCCCACTTCAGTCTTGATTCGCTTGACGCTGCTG` the fluorescence intensity was 65.5 a.u.
For `TCTCAATCTCCGTCCAATGTGACGCCCACTACGATTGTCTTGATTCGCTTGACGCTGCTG`, the fluorescence intensity was 75.6 a.u.
The fluorescence intensity of `ACCCCAGCCGCCGGGTTCGTGCCAGTCTGGTAAGCCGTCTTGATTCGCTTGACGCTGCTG` is reported as 56 a.u.
`CGTCCTAGTGATTGTCTGGTGGGTGCCATGAGGAAGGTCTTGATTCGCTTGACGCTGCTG` has a fluorescence intensity of 79 a.u.
The fluorescence intensity of `GTCAGAGTCGTTGTTCTCGTGCTTTTCCGTAGCCTCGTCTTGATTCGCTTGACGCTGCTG` is reported as 100 a.u.
`CCTTAACGCAATCGGTGTGTGATATTGCTCTAAGGTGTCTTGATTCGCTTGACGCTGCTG` gave a fluorescence intensity of 74.6 a.u.
`TATTCACAGAGTTCTCATGTGACAGGTATTGATGATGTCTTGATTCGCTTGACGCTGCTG` has a fluorescence intensity of 674 a.u.
For `AAATTACTAAGTTGTAATGTGGGTGACGCCGTATGAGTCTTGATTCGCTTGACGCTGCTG`, the fluorescence intensity was 71.7 a.u.
`TCTAACATATCCTTTCTCATGACAGTATTCATGGATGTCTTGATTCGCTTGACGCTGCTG` gave a fluorescence intensity of 82.7 a.u.
`CTACCATTATGCAAAAGCGTGCTAAGAAGAACGAAAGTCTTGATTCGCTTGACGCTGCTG` gave a fluorescence intensity of 110 a.u.

Set 4
Target: TAR DNA-binding protein 43, full length, His tag (TARDBP, Homo sapiens, UniProt Q13148, residues 1-414)
Technique: RNA Bind-n-Seq
Form: RNA
Matrix: in vitro
Concentration: 20 nM
Notes: 6-mer, flanks averaged, single round
Added: 150 mM KCl
Baseline: input library
Reading: higher = stronger binding
`UUGGUA` — result for “6-mer enrichment (R)”: 0.768.
Under “6-mer enrichment (R)”, `UGAUUC` is recorded as 0.575.
`AAUCAG` — result for “6-mer enrichment (R)”: 0.662.
For `AUUACC`, “6-mer enrichment (R)” read 0.577.
`CAACAC` — result for “6-mer enrichment (R)”: 0.633.
Under “6-mer enrichment (R)”, `GUUCCA` is recorded as 0.631.
`GCCACG`: “6-mer enrichment (R)” 1.04.
`CCCCUG`: “6-mer enrichment (R)” 0.692.
`CCAGGA` — result for “6-mer enrichment (R)”: 0.937.
For `CAUGGC`, “6-mer enrichment (R)” read 0.865.
`GCGUGU` — result for “6-mer enrichment (R)”: 1.59.
`CUUGGC`: “6-mer enrichment (R)” 0.802.
`UAAGUC`: “6-mer enrichment (R)” 0.592.
For `AGGAGU`, “6-mer enrichment (R)” read 1.41.
For `GCAGAA`, “6-mer enrichment (R)” read 0.976.
`UUCACU` — result for “6-mer enrichment (R)”: 0.544.
Under “6-mer enrichment (R)”, `ACUGCC` is recorded as 0.65.
For `CGGGUG`, “6-mer enrichment (R)” read 3.9.
`UGGCAA`: “6-mer enrichment (R)” 0.869.
`UGACCG` — result for “6-mer enrichment (R)”: 0.846.
For `UGGGAA`, “6-mer enrichment (R)” read 2.02.
For `GAGCGG`, “6-mer enrichment (R)” read 3.62.
Under “6-mer enrichment (R)”, `UCUGCA` is recorded as 0.625.
`GUUGAA` — result for “6-mer enrichment (R)”: 0.862.
For `UGCCCC`, “6-mer enrichment (R)” read 0.689.

Set 5
Target: Probable WRKY transcription factor 33, N-terminal DNA-binding domain (WRKY33, Arabidopsis thaliana, UniProt Q8S8P5, residues 169-264)
Technique: DNA-protein interaction ELISA
Form: double-stranded DNA, one strand shown
Matrix: in vitro, bacterial lysate
Concentration: not given
Notes: whole dsDNA probe, crude lysate protein
Baseline: highest signal in screen
Reading: higher = stronger binding
Construct (chain): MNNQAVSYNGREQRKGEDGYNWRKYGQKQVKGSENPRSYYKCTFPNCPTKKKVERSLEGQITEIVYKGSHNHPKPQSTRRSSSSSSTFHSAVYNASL
With `AAAAAAGCATATCTTCAGAACTTGCCAAAA` the relative absorbance was 21.6 % of maximum.
`AAAAAACTAACCGTCGCAGGCGTGTGAAAA` gave a relative absorbance of 22 % of maximum.
For `AAAAAATTTGCTCTTTTGGTTTTCACAAAA`, the relative absorbance was 24.4 % of maximum.
The relative absorbance of `AAAAAATTAGCTTATCCTTGCTTGTGAAAA` is reported as 26.4 % of maximum.
For `AAAAAATCGGGGATCCGGGCGGTTGCAAAA`, the relative absorbance was 22.1 % of maximum.
`AAAAAACTCGTACATCTATCGCTACGAAAA` gave a relative absorbance of 23.3 % of maximum.
`AAAAAACACGCCATTGACACTGGTAAAAAA` gave a relative absorbance of 21.3 % of maximum.
The relative absorbance of `AAAAAATCATCTCTATGTTATTGTTGAAAA` is reported as 26.1 % of maximum.
`AAAAAAGATTGACTCGTCTTACTCGAAAAA` gave a relative absorbance of 100 % of maximum.
`AAAAAACTCGACATAGAATGCGGAAAAAAA` gave a relative absorbance of 20.3 % of maximum.
For `AAAAAAGGCCACGGTAACCCCTTTTGAAAA`, the relative absorbance was 21.7 % of maximum.
`AAAAAATAGTACCGCTAATGGCTGACAAAA` has a relative absorbance of 22.1 % of maximum.
With `AAAAAAGTTTCTGCTTTCCCTTTCGTAAAA` the relative absorbance was 24.2 % of maximum.
`AAAAAACATAACCGCAAAATCCCTACAAAA` has a relative absorbance of 18.4 % of maximum.

Set 6
Target: Interferon regulatory factor 7, full length, phosphomimetic (IRF7, Homo sapiens, UniProt Q92985, residues 1-503, S471D/S472D/S475D/S476D/S477D/S483D/S484D/S487D)
UniProt Q92985, sequence (whole entry, unmodified, looked up): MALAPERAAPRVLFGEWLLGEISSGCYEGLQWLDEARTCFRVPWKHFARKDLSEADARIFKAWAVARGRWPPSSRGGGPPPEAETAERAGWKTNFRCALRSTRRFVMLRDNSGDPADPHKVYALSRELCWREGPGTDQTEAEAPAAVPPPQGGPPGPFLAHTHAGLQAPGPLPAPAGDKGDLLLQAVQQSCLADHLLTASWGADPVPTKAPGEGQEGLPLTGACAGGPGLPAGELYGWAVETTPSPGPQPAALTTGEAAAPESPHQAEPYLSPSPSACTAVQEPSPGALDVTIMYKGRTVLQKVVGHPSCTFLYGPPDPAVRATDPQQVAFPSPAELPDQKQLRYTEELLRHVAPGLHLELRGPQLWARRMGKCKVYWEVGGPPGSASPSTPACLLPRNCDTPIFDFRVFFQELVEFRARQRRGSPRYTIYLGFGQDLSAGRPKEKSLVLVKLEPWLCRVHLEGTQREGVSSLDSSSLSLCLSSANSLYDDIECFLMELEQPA
Technique: protein-binding microarray
Form: double-stranded DNA, one strand shown
Matrix: in vitro
Concentration: 2200 nM top
Notes: 60-bp whole probe
Added: salmon DNA 0.4 mg/ml
Baseline: random background probes
Reading: higher = stronger binding
All sequences stand within: GCCTAGCAC … GTCTTGATTCGCTTGACGCTGCTG
`GTCGATATCGGGACTGGAGACGTGCTA` — result for “fitted relative affinity”: 0.203 z-score.
`TTAGACTTCAGTATCGATTAGTGCTAG` — result for “fitted relative affinity”: 0.214 z-score.
`TTAGGTTTCCTTTTCCTTGAGTGCTAG`: “fitted relative affinity” 5.42 z-score.
`GACGATATCCGGTTTCGAGACGTGCTA` — result for “fitted relative affinity”: 3.23 z-score.
For `TTAGGTATAGGACTGGGTTAGTGCTAG`, “fitted relative affinity” read -0.294 z-score.
`TCATGTTTGGTCCTGATACTGTGCTAG` — result for “fitted relative affinity”: 1.75 z-score.
`TCAGAAATTCCTCTGAGACTGTGCTAG` — result for “fitted relative affinity”: -0.212 z-score.
Under “fitted relative affinity”, `GACTGTATCGGTATCGGGACGTGCTAG` is recorded as 0.581 z-score.
Under “fitted relative affinity”, `TCAGTTTTCTCTATTGCACTGTGCTAG` is recorded as 2.48 z-score.
Under “fitted relative affinity”, `TTTCTTTTCTTTTCTTTTTTGTGCTAG` is recorded as 13.4 z-score.
`GGGCATTTTTTTATCAATCAGTGCTAG` — result for “fitted relative affinity”: -0.231 z-score.
Under “fitted relative affinity”, `GTTTTTTTCTACTTCTCTTTGTGCTAG` is recorded as 3.61 z-score.
`TTAGGTATCCTACCGCTTTAGTGCTAG` — result for “fitted relative affinity”: 0.41 z-score.
`TCACCATTTTTTTTCACACTGTGCTAG` — result for “fitted relative affinity”: 2.02 z-score.
Under “fitted relative affinity”, `AAATCTAAAAAGTCTCTGGGAGTGCTA` is recorded as -1.03 z-score.
Under “fitted relative affinity”, `TTAGGTTTCCTGTCCCTTTAGTGCTAG` is recorded as 2.15 z-score.
Under “fitted relative affinity”, `TTCACTTTCCAAAGCGTGAGGTGCTAG` is recorded as 2.19 z-score.
Under “fitted relative affinity”, `GACCGTATCGGGACTGGGGACGTGCTA` is recorded as -0.351 z-score.
`TCATTTTTTTGTATTTTACTGTGCTAG`: “fitted relative affinity” 1.87 z-score.
